Published values of several laboratories.
Protocols differ between the studies behind these lines. ± gives the spread as reported. Converted amounts (≈) assume the structure as drawn.

With O=C(N/N=C/c1ccc2c(ccc[n+]2Cc2ccccc2)c1)c1cncc(C(=O)N/N=C/c2ccc3c(ccc[n+]3Cc3ccccc3)c2)n1 the ΔTm was 23.1 ± 0.4 °C (telomeric G4 DNA hybrid-2; FRET melting; 1 µM, DNA 0.2 µM).
For CNS(=O)(=O)Nc1nccc(Cc2c(C)c3ccc(Oc4ncccc4F)cc3oc2=O)c1F, the IC50 was 0.858 µM (NCCIT; cell viability; 7 days).
For N=C(N)NCCC[C@@H]1NC(=O)[C@H](CCCNC(=N)N)NC(=O)[C@@H](CCCNC(=N)N)NC(=O)[C@H](C(c2ccccc2)c2ccccc2)NC(=O)[C@H](C(c2ccccc2)c2ccccc2)NC(=O)[C@H](C(c2ccccc2)c2ccccc2)NC(=O)[C@H](CCCNC(=N)N)NC1=O, the MIC was 1 µg/mL (≈ 0.772 µM) (Blastomyces dermatitidis; BD-2).
C=C(NC(=O)c1csc(-c2nc3c(cc2O)-c2nc(cs2)C(=O)NC(C(C)O)C(=O)NC(=C(C)OC)c2nc(cs2)C(=O)NC2c4nc(cs4)C(=O)NC(COC(=O)c4c5c6c(cccc6n4O)COC(=O)C(OC4CC(C)(O)C(N(C)C)C(C)O4)C2OC5)c2nc-3cs2)n1)C(N)=O (stereo not drawn) gave an ED50 of 0.73 mg/kg (Staphylococcus haemolyticus; mouse systemic infection; intravenous; survival).
COc1cc(O)ccc1CCC(c1ccc(O)cc1)c1cc2c(c(C)c1O)OC(c1ccc(O)cc1)CC2 (mixture of isomers) has an LTB4 level of 675 ± 346 pg/mL (human blood; 10 µM, added: A23187).
For CC(=O)[O-].O.O.[O-]c1ccc(Br)cc1C=NCCN1CCOCC1.[Zn+2], “ferric reducing power” read 35.6% (FRAP; 160 µM).
Cc1ncsc1-c1ccc(C(C)NC(=O)C2CC(O)CN2C(=O)C(NC(=O)CCCCCCCCCCN2CCCC(Nc3ncc(Cl)c(Nc4ccccc4S(=O)(=O)C(C)C)n3)C2)C(C)(C)C)cc1 (stereo not drawn) — result for “log2 fold change”: -2.12 (22Rv1; RNA-seq, measured: SLFN5 mRNA; concentration not given; reference: DMSO).
N=C(N)NCCC[C@@H]1NC(=O)[C@H](CCCNC(=N)N)NC(=O)[C@@H](C(c2ccccc2)c2ccccc2)NC(=O)[C@H](Cc2c[nH]c3ccccc23)NC(=O)[C@@H](C(c2ccccc2)c2ccccc2)NC(=O)[C@@H](CCCNC(=N)N)NC(=O)[C@@H](CCCNC(=N)N)NC1=O gave an MIC of 1 µg/mL (≈ 0.795 µM) (Blastomyces dermatitidis; BD-2).
With CC[n+]1cccc2cc(/C=N/NC(=O)c3cccc(C(=O)N/N=C/c4ccc5c(ccc[n+]5CC)c4)n3)ccc21 the ΔTm was 21.5 ± 1.2 °C (telomeric G4 DNA hybrid-2; FRET melting; 1 µM, DNA 0.2 µM).
C=CC(=O)Nc1cccc(Cn2ncc3cnc(Nc4cnn(CCOC)c4)nc32)c1: “percent of control” 91% (CLK1 human; binding, KINOMEscan; 100 nM; lower = stronger binding).
For CC[n+]1cccc2cc(/C=N/NC(=O)c3cc(C(=O)N/N=C/c4ccc5c(ccc[n+]5CC)c4)ncn3)ccc21, the ΔTm was 6.2 ± 0.5 °C (telomeric G4 DNA hybrid-2; FRET melting; 1 µM, DNA 0.2 µM).
Cc1ccncc1.[Cl-].[Cl-].[Ru+2].c1cc(-c2ccc3cccnc3n2)nc(-c2ccc3cccnc3n2)c1.c1ccc2cc3nc4c5cccnc5c5ncccc5c4nc3cc2c1 has a phototoxicity index of 59 (B16-F10; resazurin; added: light 523 nm, 100 J/cm2; reference: dark EC50 over light EC50).
For O=C(N/N=C/c1ccc(C[n+]2ccccc2)cc1)c1ccc2ccc(C(=O)N/N=C/c3ccc(C[n+]4ccccc4)cc3)nc2n1, the ΔTm was 16.5 ± 0.4 °C (telomeric G4 DNA hybrid-2; FRET melting; 1 µM, DNA 0.2 µM).
With C=CC(=O)N1[C@@H](c2ccc3c(c2)OCO3)c2[nH]c3ccccc3c2C[C@H]1C(=O)N1CCN(C)CC1 the relative co-enrichment was 69% (human cyclin E1 N112C-3xFLAG:CDK2; co-IP with TMT proteomics, measured: TXN; concentration not given, P10599; reference: wild type DMSO).
c1ccc(-c2n[nH]cc2-c2ccnc3ccccc23)nc1 — result for “log2 fold change”: -0.18 (CTK1 (Candida albicans); kinase binding, MIB/MS competition; Candida albicans lysate; 10 µM; reference: DMSO).
For CN1CCCNC(=O)c2cccc(c2)C(=O)NCCCN(C)CCCNc2cccc3c2C(=O)c2cccc(c2C3=O)NCCC1, “log2 fold change” read -0.564 (SAS; RNA-Seq, measured: FANCI mRNA; 1 µM, 6 h; reference: untreated cells).
For O=C(N/N=C/c1cc[n+](CC2CC2)c2ccccc12)c1cncc(C(=O)N/N=C/c2cc[n+](CC3CC3)c3ccccc23)n1, the ΔTm was 23.7 ± 0.2 °C (telomeric G4 DNA hybrid-2; FRET melting; 1 µM, DNA 0.2 µM).
With CC(C)c1ccc(N(C)c2ccc3c(c2)OCC[C@H]3CNc2cnccc2C(=O)O)cc1 the IC50 was at least 10 µM (SCC-15; cell viability; 7 days).
With O=C(N/N=C/c1cc[n+](CC2CC2)c2ccccc12)c1cccc(C(=O)N/N=C/c2cc[n+](CC3CC3)c3ccccc23)n1 the ΔTm was 28.2 ± 0.1 °C (telomeric G4 DNA hybrid-2; FRET melting; 1 µM, DNA 0.2 µM, added: duplex DNA competitor 10 µM).
Nc1ncc(-c2cc(-c3cnn(CC(F)(F)F)c3)ncc2F)nc1C(=O)NC1CNCC(F)C1 (stereo not drawn) gave a remaining binding of 96% (p38-alpha; KINOMEscan competition binding; 1 µM; reference: DMSO control).
O=C(N/N=C/c1ccc2c(ccc[n+]2Cc2ccccc2)c1)c1ccc2ccc3ccc(C(=O)N/N=C/c4ccc5c(ccc[n+]5Cc5ccccc5)c4)nc3c2n1 has a ΔTm of 30.8 ± 0.6 °C (telomeric G4 DNA hybrid-2; FRET melting; 1 µM, DNA 0.2 µM).
Under “log2 fold change”, COC1CN([C@H]2CC[C@H]([C@@]3(C)Oc4c(Cl)cc(C(=O)NCc5c(SC)cc(C)[nH]c5=O)c(C)c4O3)CC2)C1 is recorded as 1.92 (RNA-seq, measured: GADD45A; human, whole blood; dose not given, 24 h; reference: pretreatment baseline).
For CC(C)(C)c1cc(-c2ccc3cccnc3n2)nc(-c2ccc3cccnc3n2)c1.[Cl-].[Cl-].[Ru+2].c1cnc2c(c1)ccc1cccnc12, the EC50 was 217 ± 8 µM (B16-F10; resazurin; added: light 733 nm, 9 mW, 100 J/cm2).
The ΔTm of C[n+]1cc(/C=N/NC(=O)c2cncc(C(=O)N/N=C/c3cc4ccccc4[n+](C)c3)n2)cc2ccccc21 is reported as 14.9 ± 0.8 °C (telomeric G4 DNA hybrid-2; FRET melting; 1 µM, DNA 0.2 µM, added: duplex DNA competitor 10 µM).
